Published values from different studies.
Compare with care: the assays were run in different laboratories. Values joined by “and” are separate records of one study, mostly repeats; a detail may differ. Numbers after ± are the reported error.

SMILES	assay	system	conditions	scale	quantity	value
CSc1ccc(C(=O)/C=C/c2cc(C)c(OC(C)(C)C(=O)O)c(C)c2)cc1		C57BL/6 mice, WD/CCl4 MASH model	oral, 30 mg/kg daily, 4 weeks	baseline: model group	NAS score	decreased
c1ccc(-c2n[nH]cc2-c2ccnc3ccccc23)nc1	kinase binding, competitor, MIB/MS competition, measured: CMK2	Candida albicans cell lysate	100 nM	baseline: DMSO	log2 fold change	-0.00681
C[C@@H](NC(=O)N1C(=O)[C@H](Cc2ccnc(N)c2)[C@H]1C(=O)O)C1CCCCC1		human	iv infusion, 1.5 mg/kg/h, 24 h		ACT Emax	128 s
Cn1cc(Nc2nccc(-c3ccc4c(c3)CN(C3COC3)CC[C@H]4NC(=O)c3cn(C(C)(C)C)nn3)n2)cn1	measured: Endocannabinoid Cancer Inhibition Pathway	splenic B cells, Mus musculus	30 mg/kg, with: IgD activation	baseline: vehicle, direction not given	pathway activation z-score	0.392
CC(C)C[C@H](NC(=O)[C@H](CCC1CCCCC1)NC(=O)[C@@H]1C[C@H](C)CN1C(=O)c1ccc(F)cc1)C(=O)NC(C)(C)C(=O)N[C@@H](CC(C)C)C(=O)N[C@@H](CC(C)C)C(=O)NC(C)(C)C(=O)NC(C)(C)C(=O)NCCC(=O)N[C@@H](C)CN(C)C		small unilamellar vesicles	concentration not given		calcein leakage	30.1%
C[C@H](Oc1ccc(Br)cc1-c1ccon1)C(=O)O	response latency	human, tibialis anterior muscle	400 mg, 30 Hz+30 s		difference from placebo	0.994%
Cc1c(C)c2c(c(C)c1O)CCC(C)(C(=O)O)O2 (stereo not shown)	ABTS	DMSO	concentration not given		ABTS radical cation scavenging	98.1 ± 0.48%
Cl.N[C@@H](CC1=CCC(O)(c2nncnn2)C=C1)C(=O)O (stereo partly shown)	iEDDA cycloaddition	aqueous DMSO 25 %	37 °C, with: TCO-OH 7.2 mM		kobs	2.8 s⁻¹
CC(C)(C)c1ccc(OC2=CS(=O)(=O)c3ccccc32)cc1	CoA-CPM signal reduction, CPM fluorescence thiol	cell-free biochemical	assay interference counter-screen, with: CoA replacing acetyl-CoA		IC50	> 125 µM
C=CC(=O)Nc1cc(Nc2nccc(Nc3cc(Cl)c(F)cc3C(C)(C)O)n2)c(OC)cc1N1CC[C@@H](N(C)C)C1		human, EGFR exon20ins NSCLC	dose not given, V769_D770insASV subtype		confirmed objective response rate	40%
O=S(=O)(c1ccc(Br)c2nsnc12)N1CCOCC1	CoA-CPM signal reduction, CPM fluorescence thiol	cell-free biochemical	assay interference counter-screen, with: CoA replacing acetyl-CoA		IC50	> 125 µM
Cc1cc(F)cc2c(CCC(=O)N[C@@H]3C(=O)NC[C@H]3O)c(-c3ccc(F)cc3)[nH]c12	proteinuria, measured: UACR AUC	APOL1 G2 multicopy mice	dose not given, 0 to 48 h, with: IFNγ	baseline: vehicle	inhibition	95%
Cc1n[nH]c2ccc(-c3cc(OC[C@@H](N)Cc4ccccc4)cnc3-c3ccoc3)cc12	kinase binding, competitor, MIB/MS competition, measured: HSL1	Candida albicans cell lysate	1 µM	baseline: DMSO	log2 fold change	0.197
COc1cc(Nc2ncc3c(n2)-c2ccc(Cl)cc2C(c2c(F)cccc2OC)=NC3)ccc1C(=O)O		female NOD/scid mice, ALL-2 B-precursor ALL xenograft	5.2 mg/kg, 5 days weekly, score scale 0 to 10	direction not given	median response score	8
O=C(O)CNC(=O)Cc1ccccc1		ventricular cardiomyocytes, C57BL/6 mouse	dose not given, 0.58 s		sarcomere length	1.64 µm
Oc1nc2nonc2cc1Nc1c(F)c(F)c(F)c(F)c1F	indirect calorimetry	Western diet-fed mice	oral gavage, 130 mg/kg, 4 h	baseline: vehicle	oxygen consumption	increased
O=S(=O)(c1ccc2nsnc2c1)N1CCOCC1	CoA-CPM signal reduction, CPM fluorescence thiol	cell-free biochemical	assay interference counter-screen, with: CoA replacing acetyl-CoA		IC50	> 125 µM

SMILES	assay	system	conditions	scale	quantity	value
CC(C)NCC(O)c1ccc(O)c(O)c1 (stereo not shown)		ventricular cardiomyocytes, C57BL/6 mouse	dose not given, 0.428 s		sarcomere length	1.72 µm
CC(C)[C@H](C(=O)Nc1ccc(C(=O)NO)cc1)c1ccccc1	MRI volumetry	human, left parieto-occipital meningioma	dose not given, day 1143 post-treatment		tumour volume	0.102 cm³
CC(=O)Oc1cc2c(s1)CCN(C(C(=O)C1CC1)c1ccccc1F)C2 (stereo not shown)	platelet aggregation, light transmittance aggregometry	human, platelet-rich plasma	dose not given, 15 min, IPA above 80 %, with: TRAP 5 µM	baseline: patients	patients with IPA above threshold	0%
CC(C)[C@H](NC(=O)[C@H](Cc1ccc(O)cc1)NC(=O)[C@H](Cc1ccc(O)cc1)NC(=O)[C@@H]1CCCN1C(=O)[C@H](CCC(=O)O)NC(=O)[C@H](CCC(=O)O)NC(=O)[C@H](Cc1c[nH]c2ccccc12)NC(=O)[C@@H]1CCCN1C(=O)[C@@H](NC(=O)[C@H](CCC(N)=O)NC(=O)c1ccc2c(c1)C(=O)OC21c2ccc(O)cc2Oc2cc(O)ccc21)C(C)C)C(=O)N[C@H](C(=O)N[C@@H](CCCCN)C(=O)N[C@@H](CCCCN)C(=O)N[C@@H](CO)C(=O)N[C@@H](CO)C(=O)NCC(=O)NCC(N)=O)C(C)C	nerve trajectory	human head and neck surgery, nerves	500 mg, not improved	baseline: white light	share of responses	50%
C[C@@H](O)CCOC(=O)C[C@@H](C)O	measured: C10:3 acylcarnitine	human, plasma	60 min, log2-transformed values		metabolite level	-3.19 ± 0.77 µmol/L
OC(CCN1CCCCC1)(c1ccccc1)C1CC2C=CC1C2 (stereo not shown)	resting-state EEG	healthy elderly humans	oral, 2 mg, eyes open, LS mean		EEG Alpha2-power Fz-Cz	1.7 µV²
C[C@H]1O[C@@H](O[C@H]2CC[C@@]3(C)[C@@H](CC[C@]4(C)[C@@H]3C=C[C@]35OC[C@@]6(CCC(C)(C)C[C@H]63)[C@@H](O)C[C@]54C)[C@]2(C)CO)[C@H](O)[C@@H](O[C@@H]2O[C@H](CO)[C@@H](O)[C@H](O)[C@H]2O)[C@H]1O		chronic-plus-binge ethanol mice, plasma	oral, 5 mg/kg/day for 7 d, 168 h		AST activity	55.2 U/L and 45.7 U/L and 54.2 U/L and 48.2 U/L
N#CCC1CCN(c2nc(Nc3ccc(N4CCC(O)CC4)cc3)c3c(=O)[nH]ncc3n2)CC1	Olink multiplex	human, serum	40 mg, day 29, unit not given	baseline: baseline	IL-18 level change	-1.37
CC(C)(C)c1sc2ncnc(Oc3c(F)cccc3OC(F)(F)F)c2c1-c1ccc(Cl)cc1		Mrgpr knock-out mice, CCI	oral, 16 mg/kg		heat hyperalgesia	inhibited
O=C(O)CN1Cc2cccc(n2)CN(CC(=O)O)Cc2cccc(n2)C1		HEPES buffer with NaCl	33 °C, 1.4 T		r1 relaxivity	2.5 mM⁻¹ s⁻¹
N=C(SC1CC(=O)N(c2ccc(Br)cc2)C1=O)N1N=C(c2ccccc2)CC1c1ccccc1 (stereo not shown)	CoA-CPM signal reduction, CPM fluorescence thiol	cell-free biochemical	assay interference counter-screen, with: CoA replacing acetyl-CoA		IC50	> 125 µM
NC(=O)c1cnc2[nH]ccc2c1N[C@@H]1[C@@H]2CC3C[C@H]1C[C@@](O)(C3)C2	flow cytometry, measured: CD8+ naive T cells	Japanese healthy subjects, peripheral blood	oral, 10 mg twice daily, day 4		change from baseline	0.75%
CO[C@@H]1[C@@H](OC(N)=O)[C@@H](O)[C@H](Oc2ccc3c(O)c(NC(=O)c4ccc(O)c(CC=C(C)C)c4)c(=O)oc3c2C)OC1(C)C		Brca1 cc/cc MEFs, mouse	100 µM		colony survival	78.3% and 70.2% and 55.8% and 41.2%
C[C@@H]1CCC[C@H](n2cnc(-c3cc(Cl)ccc3-n3cc(Cl)nn3)cc2=O)c2cc(ccn2)-c2c(cnn2C(F)F)NC1=O		pooled normal human plasma	IC1.5× aPTT, STA-PTT reagent		concentration for aPTT prolongation	250 nM
C=C(CS(=O)(=O)c1cc(C(F)(F)F)cc(C(F)(F)F)c1)C(=O)OCC	HPLC-MS		pH 10.2, with: 50 mM N-α-acetyl-lysine		pseudo-first-order rate constant	29.9 h⁻¹
O=[N+]([O-])c1c(Sc2ccc(Cl)cc2)ccc2nsnc12	CoA-CPM signal reduction, CPM fluorescence thiol	cell-free biochemical	assay interference counter-screen, with: CoA replacing acetyl-CoA		IC50	> 125 µM
CN(C)C(=O)c1cc2cnc(Nc3ccc(N4CCNCC4)cn3)nc2n1C1CCCC1	RNA-seq GSEA, measured: HALLMARK_KRAS_SIGNALING_UP gene set	MB002 tumour	concentration not given	baseline: vehicle, direction not given	enrichment score	-0.396
